Assay results collected from several papers.
A part holds a random share of what one study measured. Positions count from the first letter of the parent shown.
UniProt P10721, sequence (whole entry, unmodified, looked up): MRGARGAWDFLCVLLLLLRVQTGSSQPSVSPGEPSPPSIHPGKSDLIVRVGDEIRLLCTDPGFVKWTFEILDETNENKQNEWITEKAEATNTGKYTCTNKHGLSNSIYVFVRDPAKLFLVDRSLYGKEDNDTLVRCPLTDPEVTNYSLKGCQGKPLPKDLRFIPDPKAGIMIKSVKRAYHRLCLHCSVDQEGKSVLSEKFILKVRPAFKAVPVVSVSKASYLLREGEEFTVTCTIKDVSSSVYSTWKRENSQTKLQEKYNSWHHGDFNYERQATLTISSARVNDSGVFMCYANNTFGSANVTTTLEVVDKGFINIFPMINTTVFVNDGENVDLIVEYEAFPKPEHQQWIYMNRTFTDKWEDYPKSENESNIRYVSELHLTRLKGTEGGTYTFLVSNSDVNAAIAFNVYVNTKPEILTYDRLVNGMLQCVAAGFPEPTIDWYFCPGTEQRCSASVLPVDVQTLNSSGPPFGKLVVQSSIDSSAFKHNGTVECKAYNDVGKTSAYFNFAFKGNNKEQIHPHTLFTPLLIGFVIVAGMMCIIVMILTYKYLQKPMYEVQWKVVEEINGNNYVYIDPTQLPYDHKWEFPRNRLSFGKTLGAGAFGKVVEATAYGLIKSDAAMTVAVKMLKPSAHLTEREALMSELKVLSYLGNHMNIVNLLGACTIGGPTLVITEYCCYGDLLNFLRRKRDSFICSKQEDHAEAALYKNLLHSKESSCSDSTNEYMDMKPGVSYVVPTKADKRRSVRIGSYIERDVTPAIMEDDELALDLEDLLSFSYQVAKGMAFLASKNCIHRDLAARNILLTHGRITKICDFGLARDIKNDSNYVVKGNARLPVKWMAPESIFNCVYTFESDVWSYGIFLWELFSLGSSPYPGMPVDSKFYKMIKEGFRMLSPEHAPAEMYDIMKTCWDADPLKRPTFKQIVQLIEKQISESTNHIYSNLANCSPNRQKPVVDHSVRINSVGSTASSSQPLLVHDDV
UniProt P51955, sequence (whole entry, looked up): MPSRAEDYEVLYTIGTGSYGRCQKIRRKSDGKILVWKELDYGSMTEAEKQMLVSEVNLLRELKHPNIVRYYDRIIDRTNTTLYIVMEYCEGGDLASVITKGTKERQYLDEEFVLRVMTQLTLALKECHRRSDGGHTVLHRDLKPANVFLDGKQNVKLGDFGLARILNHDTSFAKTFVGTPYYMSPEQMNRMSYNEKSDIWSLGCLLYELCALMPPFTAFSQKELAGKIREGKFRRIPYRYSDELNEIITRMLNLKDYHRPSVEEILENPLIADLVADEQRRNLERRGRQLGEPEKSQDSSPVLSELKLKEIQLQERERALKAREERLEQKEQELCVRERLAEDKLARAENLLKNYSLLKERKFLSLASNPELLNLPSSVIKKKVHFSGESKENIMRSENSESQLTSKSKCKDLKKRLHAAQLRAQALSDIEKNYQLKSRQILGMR
UniProt Q9C7I9, sequence (whole entry, looked up): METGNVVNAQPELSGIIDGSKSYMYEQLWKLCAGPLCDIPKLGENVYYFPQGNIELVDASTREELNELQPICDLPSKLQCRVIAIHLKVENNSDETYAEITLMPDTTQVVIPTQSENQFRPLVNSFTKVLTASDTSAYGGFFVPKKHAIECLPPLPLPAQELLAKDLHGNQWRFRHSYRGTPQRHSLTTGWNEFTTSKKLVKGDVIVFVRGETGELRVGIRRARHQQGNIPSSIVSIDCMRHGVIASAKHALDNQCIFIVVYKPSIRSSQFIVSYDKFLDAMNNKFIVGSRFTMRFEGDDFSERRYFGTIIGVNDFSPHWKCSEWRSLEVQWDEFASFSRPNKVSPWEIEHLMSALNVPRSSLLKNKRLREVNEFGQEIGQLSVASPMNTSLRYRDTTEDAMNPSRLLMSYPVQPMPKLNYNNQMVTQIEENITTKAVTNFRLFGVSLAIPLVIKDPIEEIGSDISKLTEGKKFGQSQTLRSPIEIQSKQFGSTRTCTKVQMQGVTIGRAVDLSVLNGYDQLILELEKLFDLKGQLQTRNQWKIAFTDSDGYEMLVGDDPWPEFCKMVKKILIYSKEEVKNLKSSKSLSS
UniProt Q38831, sequence (whole entry, looked up): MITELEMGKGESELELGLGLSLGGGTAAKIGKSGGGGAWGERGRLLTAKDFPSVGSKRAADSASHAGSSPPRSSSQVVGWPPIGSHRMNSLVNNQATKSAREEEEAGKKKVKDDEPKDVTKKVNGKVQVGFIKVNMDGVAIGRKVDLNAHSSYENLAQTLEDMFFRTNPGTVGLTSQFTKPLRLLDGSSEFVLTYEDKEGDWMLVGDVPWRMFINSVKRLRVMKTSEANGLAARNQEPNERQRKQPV
UniProt Q9ZPY6, sequence (whole entry, looked up): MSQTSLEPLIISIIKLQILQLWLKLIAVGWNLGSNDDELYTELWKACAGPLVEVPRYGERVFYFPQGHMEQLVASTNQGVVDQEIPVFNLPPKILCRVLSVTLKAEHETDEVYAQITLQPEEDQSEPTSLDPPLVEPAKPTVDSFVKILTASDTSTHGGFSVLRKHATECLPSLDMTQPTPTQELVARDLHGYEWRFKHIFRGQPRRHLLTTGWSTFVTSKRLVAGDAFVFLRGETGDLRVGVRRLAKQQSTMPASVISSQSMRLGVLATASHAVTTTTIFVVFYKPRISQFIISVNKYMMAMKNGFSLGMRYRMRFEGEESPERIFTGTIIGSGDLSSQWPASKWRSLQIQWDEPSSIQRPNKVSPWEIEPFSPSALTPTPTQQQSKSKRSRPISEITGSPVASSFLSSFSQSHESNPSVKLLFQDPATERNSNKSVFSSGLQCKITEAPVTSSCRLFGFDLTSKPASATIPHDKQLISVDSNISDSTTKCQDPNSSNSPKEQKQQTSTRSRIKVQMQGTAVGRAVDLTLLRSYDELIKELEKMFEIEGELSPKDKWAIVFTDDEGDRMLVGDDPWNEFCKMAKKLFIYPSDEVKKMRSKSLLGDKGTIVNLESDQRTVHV
UniProt Q38828, sequence (whole entry, looked up): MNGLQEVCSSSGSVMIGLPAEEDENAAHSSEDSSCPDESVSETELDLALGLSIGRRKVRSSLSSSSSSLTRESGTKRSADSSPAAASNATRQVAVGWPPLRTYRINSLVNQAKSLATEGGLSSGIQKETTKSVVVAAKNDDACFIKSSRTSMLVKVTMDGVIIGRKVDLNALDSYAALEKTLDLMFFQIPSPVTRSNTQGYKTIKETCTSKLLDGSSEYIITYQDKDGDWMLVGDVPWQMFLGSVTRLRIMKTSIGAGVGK
UniProt Q8TBX8, sequence (whole entry, looked up): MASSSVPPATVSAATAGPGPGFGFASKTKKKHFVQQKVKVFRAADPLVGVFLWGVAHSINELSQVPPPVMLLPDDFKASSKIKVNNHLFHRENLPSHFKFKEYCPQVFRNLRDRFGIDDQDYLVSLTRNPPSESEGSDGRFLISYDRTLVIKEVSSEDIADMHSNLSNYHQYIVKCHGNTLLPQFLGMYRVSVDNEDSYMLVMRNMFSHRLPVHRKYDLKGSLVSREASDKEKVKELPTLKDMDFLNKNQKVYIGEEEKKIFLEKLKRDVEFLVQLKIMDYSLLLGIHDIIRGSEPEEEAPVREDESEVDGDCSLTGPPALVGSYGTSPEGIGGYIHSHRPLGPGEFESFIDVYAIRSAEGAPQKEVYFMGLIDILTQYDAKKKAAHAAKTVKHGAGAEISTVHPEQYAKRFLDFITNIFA

Series 1 — Sequence: B1 (IAA2); method: two-hybrid; direction: higher = firmer interaction
B1: IAA2 (Arabidopsis thaliana, UniProt P49678); chain MAYEKVNELNLKDTELCLGLPGRTEKIKEEQEVSCVKSNNKRLFEETRDEEESTPPTKTQIVGWPPVRSSRKNNNSVSYVKVSMDGAPYLRKIDLKTYKNYPELLKALENMFKVMIGEYCEREGYKGSGFVPTYEDKDGDWMLVGDVPWDMFSSSCKRLRIMKGSDAPALDSSL
| partner | conditions | how to read | positive tests |
| --- | --- | --- | --- |
| ARF20 484-590 (Arabidopsis thaliana, UniProt Q9C7I9) |  | reference: out of 4 tests | 0 |
| IAA30 (Arabidopsis thaliana, UniProt Q9M1R4) | weak activation fusion | reference: out of 4 tests | 2 |
| IAA13 (Arabidopsis thaliana, UniProt Q38831) |  | reference: out of 4 tests | 0 |
| IAA10 (Arabidopsis thaliana, UniProt Q38828) |  | reference: out of 4 tests | 3 |
| ARF9 519-638 (Arabidopsis thaliana, UniProt Q9XED8) | weak activation fusion | reference: out of 2 tests | 2 |
| ARF11 500-622 (Arabidopsis thaliana, UniProt Q9ZPY6) |  | reference: out of 4 tests | 0 |

Series 2 — method: competition with immobilised ligand; tested at: 1 µM
SMILES: CC(=O)C1=C(C)N(c2cccc(C(F)(F)F)c2)C(=O)N[C@@H]1c1ccc(C#N)nc1
| target | test | remaining binding [%] |
| --- | --- | --- |
| Serine/threonine-protein kinase Nek2 (NEK2, Homo sapiens, UniProt P51955) | cell-free assay | 100 |
| Serine/threonine-protein kinase Sgk2 (SGK2, Homo sapiens, UniProt Q9HBY8) | cell-free assay | 100 |
| Mast/stem cell growth factor receptor Kit (KIT, Homo sapiens, UniProt P10721, V559D) | cell-free assay | 100 |
| STE20/SPS1-related proline-alanine-rich protein kinase (STK39, Homo sapiens, UniProt Q9UEW8) | cell-free assay | 90.8 |
| Tyrosine-protein kinase ABL1, non-phosphorylated (ABL1, Homo sapiens, UniProt P00519, F317I) | binding | 100 |
| Mast/stem cell growth factor receptor Kit, autoinhibited (KIT, Homo sapiens, UniProt P10721) | cell-free assay | 83.8 |
| Tyrosine-protein kinase Fgr (FGR, Homo sapiens, UniProt P09769) | cell-free assay | 86.7 |
| Transient receptor potential cation channel subfamily M member 6 (TRPM6, Homo sapiens, UniProt Q9BX84) | cell-free assay | 83.8 |
| Phosphatidylinositol 5-phosphate 4-kinase type-2 gamma (PIP4K2C, Homo sapiens, UniProt Q8TBX8) | cell-free assay | 80.7 |
| Phosphatidylinositol 3-kinase C2 domain-containing subunit gamma (PIK3C2G, Homo sapiens, UniProt O75747) | cell-free assay | 78.2 |
| Cyclin-dependent kinase 2 (CDK2, Homo sapiens, UniProt P24941) | cell-free assay | 100 |

Series 3 — target: CCNE2, cyclin fold, Cln2 fusion (human); method: yeast growth competition, sequencing; sample: yeast; setting: weak parent motif; reference: not given; direction: higher = stronger binding
Parent: PKN2 docking peptide (human); VSAVQKLDFSDTM; partner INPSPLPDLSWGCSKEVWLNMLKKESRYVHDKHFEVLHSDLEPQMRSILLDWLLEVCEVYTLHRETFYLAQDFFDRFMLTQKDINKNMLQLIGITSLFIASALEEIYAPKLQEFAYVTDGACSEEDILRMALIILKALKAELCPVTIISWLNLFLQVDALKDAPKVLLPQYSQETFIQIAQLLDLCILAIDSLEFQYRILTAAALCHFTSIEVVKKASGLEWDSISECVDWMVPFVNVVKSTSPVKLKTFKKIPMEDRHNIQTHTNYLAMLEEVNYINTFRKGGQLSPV
| Variant | normalised enrichment score |
| --- | --- |
| VSAVQKNDFSDTM [L7N] | 0.245 |
| VSAYQKLDFSDTM [V4Y] | 0.086 |
| VSAVQKLDFSDTS [M13S] | 0.618 |
| VSAVQKLDFSDTD [M13D] | -0.191 |
| VSAVQKLDFSDWM [T12W] | 0.867 |
| VSAVQKLDFSWTM [D11W] | 0.405 |
| VSAVQKLKFSDTM [D8K] | 0.477 |
| VTAVQKLDFSDTM [S2T] | 0.399 |

Series 4 — read-out: enzyme activity; action: inhibitor; tested at: 0.5 µM; reference: control
Target: Misshapen-like kinase 1 (MINK1, Homo sapiens, UniProt Q8N4C8)
UniProt Q8N4C8, sequence (whole entry, looked up): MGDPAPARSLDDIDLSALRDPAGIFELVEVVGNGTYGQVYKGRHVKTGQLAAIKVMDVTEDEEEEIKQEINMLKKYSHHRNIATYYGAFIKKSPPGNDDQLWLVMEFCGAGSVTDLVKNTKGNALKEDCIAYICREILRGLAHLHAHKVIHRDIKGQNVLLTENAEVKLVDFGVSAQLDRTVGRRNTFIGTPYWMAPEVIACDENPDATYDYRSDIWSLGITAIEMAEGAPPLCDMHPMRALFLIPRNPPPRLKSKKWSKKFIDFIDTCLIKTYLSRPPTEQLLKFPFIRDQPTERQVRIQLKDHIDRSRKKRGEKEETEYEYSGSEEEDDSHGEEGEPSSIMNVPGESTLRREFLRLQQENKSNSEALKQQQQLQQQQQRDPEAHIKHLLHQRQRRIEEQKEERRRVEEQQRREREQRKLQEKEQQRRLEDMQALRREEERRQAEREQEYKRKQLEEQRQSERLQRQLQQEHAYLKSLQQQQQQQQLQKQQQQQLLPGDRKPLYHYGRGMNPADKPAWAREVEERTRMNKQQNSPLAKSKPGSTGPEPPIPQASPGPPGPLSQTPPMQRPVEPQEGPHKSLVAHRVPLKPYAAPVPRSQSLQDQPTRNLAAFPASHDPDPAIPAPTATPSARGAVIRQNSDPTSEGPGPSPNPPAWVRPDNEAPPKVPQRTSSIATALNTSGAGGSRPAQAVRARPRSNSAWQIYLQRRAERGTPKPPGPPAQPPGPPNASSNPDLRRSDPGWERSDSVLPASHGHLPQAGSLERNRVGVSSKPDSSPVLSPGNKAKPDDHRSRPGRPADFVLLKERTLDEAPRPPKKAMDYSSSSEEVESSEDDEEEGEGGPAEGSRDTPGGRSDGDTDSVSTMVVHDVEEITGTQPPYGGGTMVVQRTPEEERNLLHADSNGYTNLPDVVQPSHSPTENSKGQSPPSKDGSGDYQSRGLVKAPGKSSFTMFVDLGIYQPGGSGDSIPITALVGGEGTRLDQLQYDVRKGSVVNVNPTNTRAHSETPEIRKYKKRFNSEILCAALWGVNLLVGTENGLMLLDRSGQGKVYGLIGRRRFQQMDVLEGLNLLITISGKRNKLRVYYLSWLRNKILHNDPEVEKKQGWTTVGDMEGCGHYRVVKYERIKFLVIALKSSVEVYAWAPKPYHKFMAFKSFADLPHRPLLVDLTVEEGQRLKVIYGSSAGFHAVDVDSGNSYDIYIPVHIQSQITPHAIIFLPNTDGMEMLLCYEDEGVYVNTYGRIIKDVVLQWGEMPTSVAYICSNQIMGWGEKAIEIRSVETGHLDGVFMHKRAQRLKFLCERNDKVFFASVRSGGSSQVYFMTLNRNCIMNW
| Structure (SMILES) | remaining activity [%] |
| --- | --- |
| O=C(O)c1ccc2c3c1cccc3c(=O)n1c3ccccc3nc21 | 79.8 |
| O=c1c2ccccc2[nH]c(=S)n1CCN1CCC(=C(c2ccc(F)cc2)c2ccc(F)cc2)CC1 | 94.4 |
| Nc1[nH]nc2nc3ccccc3nc12 | 97.9 |
| COc1cc2ncnc(Nc3ccc(Oc4ccccc4)cc3)c2cc1OC | 101 |

Excerpt of the above (series 1):
| partner | conditions | how to read | positive tests |
| --- | --- | --- | --- |
| IAA30 (Arabidopsis thaliana, UniProt Q9M1R4) | weak activation fusion | reference: out of 4 tests | 2 |
| IAA13 (Arabidopsis thaliana, UniProt Q38831) |  | reference: out of 4 tests | 0 |
| IAA10 (Arabidopsis thaliana, UniProt Q38828) |  | reference: out of 4 tests | 3 |
| ARF9 519-638 (Arabidopsis thaliana, UniProt Q9XED8) | weak activation fusion | reference: out of 2 tests | 2 |
